Measured values pooled from the literature.
Lines come from different studies, so protocols differ. ± marks the error that the study gave.
Slc6a3: Sodium-dependent dopamine transporter (Slc6a3, Rattus norvegicus, UniProt P23977)
Chain of UniProt P23977 (whole entry, looked up): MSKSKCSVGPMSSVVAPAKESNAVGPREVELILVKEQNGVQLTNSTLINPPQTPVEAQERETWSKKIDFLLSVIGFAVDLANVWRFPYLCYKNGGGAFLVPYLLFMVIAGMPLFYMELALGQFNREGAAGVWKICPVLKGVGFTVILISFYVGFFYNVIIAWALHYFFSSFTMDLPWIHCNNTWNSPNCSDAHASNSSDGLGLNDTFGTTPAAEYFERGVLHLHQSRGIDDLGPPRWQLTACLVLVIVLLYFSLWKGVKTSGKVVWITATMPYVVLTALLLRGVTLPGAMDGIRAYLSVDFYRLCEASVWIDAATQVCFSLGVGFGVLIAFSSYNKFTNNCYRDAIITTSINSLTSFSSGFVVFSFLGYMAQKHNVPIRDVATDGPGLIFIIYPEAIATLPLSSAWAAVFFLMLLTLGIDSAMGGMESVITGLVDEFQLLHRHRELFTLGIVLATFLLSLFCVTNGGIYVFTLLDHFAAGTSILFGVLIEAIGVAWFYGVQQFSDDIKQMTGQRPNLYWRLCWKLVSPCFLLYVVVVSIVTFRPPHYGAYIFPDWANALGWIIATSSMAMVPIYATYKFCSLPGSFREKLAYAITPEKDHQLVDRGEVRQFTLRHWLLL
Chain of UniProt P18089 (whole entry, looked up): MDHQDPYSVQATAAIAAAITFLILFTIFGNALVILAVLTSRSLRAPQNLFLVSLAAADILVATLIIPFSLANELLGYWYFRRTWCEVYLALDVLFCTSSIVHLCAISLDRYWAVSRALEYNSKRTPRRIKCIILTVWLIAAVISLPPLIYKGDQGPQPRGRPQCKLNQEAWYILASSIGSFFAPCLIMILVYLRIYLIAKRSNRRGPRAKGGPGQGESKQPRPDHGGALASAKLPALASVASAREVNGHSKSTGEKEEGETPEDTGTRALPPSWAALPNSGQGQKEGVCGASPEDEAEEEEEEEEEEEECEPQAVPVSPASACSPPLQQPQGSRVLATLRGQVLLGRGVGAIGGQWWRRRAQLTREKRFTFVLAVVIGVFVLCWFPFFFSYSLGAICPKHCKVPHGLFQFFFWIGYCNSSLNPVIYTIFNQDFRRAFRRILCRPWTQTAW
Chain of UniProt P14867 (whole entry, unmodified, looked up): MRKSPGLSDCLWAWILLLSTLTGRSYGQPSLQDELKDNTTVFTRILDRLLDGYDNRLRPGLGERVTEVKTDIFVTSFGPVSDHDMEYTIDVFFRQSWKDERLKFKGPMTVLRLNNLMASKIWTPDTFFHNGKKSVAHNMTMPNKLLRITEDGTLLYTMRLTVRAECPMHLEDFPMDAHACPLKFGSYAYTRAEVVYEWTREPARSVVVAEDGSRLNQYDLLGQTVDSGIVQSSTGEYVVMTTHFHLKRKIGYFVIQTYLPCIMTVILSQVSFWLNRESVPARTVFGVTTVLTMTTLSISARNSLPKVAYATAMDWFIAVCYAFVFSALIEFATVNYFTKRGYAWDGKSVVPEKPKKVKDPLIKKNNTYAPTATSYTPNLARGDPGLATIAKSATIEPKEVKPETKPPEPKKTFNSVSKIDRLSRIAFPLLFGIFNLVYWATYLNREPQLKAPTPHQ
Chain of UniProt Q8NET8 (whole entry, unmodified, looked up): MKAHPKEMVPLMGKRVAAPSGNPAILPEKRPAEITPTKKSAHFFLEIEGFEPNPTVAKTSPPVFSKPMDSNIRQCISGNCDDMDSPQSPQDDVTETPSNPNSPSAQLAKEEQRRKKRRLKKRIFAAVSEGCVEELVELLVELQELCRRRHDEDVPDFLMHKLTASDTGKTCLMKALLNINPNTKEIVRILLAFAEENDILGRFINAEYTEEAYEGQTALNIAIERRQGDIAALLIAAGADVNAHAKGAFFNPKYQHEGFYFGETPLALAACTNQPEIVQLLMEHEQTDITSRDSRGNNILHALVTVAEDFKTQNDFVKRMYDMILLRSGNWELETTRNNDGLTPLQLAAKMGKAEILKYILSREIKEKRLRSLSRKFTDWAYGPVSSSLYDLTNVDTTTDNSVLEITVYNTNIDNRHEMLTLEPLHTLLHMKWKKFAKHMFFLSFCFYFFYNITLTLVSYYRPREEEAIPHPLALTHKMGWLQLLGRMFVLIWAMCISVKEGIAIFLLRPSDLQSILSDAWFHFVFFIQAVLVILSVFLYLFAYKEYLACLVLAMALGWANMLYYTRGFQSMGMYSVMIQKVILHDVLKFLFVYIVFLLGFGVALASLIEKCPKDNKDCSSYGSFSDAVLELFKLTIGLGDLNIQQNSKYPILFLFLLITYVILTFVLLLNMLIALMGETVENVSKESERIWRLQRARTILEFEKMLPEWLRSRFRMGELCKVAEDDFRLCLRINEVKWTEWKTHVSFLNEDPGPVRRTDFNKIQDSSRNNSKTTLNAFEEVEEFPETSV
Chain of UniProt P18507 (whole entry, looked up): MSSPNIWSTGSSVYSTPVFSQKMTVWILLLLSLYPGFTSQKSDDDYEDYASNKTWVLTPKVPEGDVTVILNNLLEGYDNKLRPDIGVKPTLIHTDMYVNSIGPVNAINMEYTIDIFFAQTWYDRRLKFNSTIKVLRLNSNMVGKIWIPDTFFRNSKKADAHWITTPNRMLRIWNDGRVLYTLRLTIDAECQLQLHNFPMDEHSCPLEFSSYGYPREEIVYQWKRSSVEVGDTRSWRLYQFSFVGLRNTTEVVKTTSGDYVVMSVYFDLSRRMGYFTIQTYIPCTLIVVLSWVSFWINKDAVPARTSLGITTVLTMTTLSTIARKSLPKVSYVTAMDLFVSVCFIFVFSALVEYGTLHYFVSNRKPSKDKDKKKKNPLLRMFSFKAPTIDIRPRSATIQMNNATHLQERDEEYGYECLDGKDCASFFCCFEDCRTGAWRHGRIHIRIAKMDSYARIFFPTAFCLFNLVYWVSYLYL
Chain of UniProt P47869 (whole entry, looked up): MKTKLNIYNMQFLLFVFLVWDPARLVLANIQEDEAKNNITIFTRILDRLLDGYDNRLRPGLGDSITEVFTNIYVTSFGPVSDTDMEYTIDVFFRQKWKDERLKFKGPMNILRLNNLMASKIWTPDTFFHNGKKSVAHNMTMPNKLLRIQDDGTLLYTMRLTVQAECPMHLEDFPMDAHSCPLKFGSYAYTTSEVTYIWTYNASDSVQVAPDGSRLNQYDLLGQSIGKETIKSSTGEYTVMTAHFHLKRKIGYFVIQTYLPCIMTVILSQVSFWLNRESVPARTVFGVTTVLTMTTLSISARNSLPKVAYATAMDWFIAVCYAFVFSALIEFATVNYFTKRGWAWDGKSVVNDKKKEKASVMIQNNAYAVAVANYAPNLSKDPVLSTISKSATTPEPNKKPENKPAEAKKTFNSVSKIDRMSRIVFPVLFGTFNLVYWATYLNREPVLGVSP
Chain of UniProt P28472 (whole entry, unmodified, looked up): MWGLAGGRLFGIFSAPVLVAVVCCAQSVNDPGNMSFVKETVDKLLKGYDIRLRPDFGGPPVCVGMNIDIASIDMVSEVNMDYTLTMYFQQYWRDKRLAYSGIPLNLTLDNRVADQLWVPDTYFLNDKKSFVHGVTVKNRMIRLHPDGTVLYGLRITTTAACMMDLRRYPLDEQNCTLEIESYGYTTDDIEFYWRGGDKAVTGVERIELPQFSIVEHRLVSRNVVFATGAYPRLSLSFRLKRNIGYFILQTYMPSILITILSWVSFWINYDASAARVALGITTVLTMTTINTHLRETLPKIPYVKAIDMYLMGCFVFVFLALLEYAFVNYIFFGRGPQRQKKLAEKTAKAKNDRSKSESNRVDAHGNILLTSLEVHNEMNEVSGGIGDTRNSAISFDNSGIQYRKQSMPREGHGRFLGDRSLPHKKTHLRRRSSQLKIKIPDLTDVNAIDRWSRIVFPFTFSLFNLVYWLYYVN
Chain of UniProt P49116 (whole entry, looked up): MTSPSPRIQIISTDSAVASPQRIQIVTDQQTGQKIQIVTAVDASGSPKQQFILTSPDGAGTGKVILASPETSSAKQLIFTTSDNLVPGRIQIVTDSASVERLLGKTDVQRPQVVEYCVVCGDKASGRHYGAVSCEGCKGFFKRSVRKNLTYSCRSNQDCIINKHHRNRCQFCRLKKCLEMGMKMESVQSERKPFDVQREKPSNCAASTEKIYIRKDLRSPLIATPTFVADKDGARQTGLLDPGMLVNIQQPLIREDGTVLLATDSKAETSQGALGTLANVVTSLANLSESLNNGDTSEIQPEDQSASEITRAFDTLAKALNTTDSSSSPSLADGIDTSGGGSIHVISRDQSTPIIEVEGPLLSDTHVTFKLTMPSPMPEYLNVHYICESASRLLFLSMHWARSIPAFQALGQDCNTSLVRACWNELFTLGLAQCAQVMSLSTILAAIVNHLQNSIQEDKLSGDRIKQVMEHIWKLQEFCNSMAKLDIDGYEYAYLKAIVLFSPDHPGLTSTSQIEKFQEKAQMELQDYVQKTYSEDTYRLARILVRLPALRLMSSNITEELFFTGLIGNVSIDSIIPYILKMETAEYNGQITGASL
Chain of UniProt P33533 (whole entry, looked up): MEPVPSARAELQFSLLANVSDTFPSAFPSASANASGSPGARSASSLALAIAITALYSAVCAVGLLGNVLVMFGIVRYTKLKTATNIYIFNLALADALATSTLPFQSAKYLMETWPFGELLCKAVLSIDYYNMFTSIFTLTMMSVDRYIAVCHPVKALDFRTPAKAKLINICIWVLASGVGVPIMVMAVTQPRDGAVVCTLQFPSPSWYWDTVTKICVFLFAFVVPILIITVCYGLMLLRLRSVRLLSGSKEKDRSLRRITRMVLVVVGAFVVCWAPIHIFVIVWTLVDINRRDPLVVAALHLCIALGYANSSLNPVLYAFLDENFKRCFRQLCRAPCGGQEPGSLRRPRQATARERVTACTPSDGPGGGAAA
Chain of UniProt P9WIL3 (whole entry, looked up): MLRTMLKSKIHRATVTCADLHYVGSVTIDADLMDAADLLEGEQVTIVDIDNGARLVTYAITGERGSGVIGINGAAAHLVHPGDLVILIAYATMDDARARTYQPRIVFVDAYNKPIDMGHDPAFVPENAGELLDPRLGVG

C[C@@H](O)[C@@H](CO)NC(=O)[C@@H](CCCNC(=N)N)NC(=O)[C@@H]1CCCN1C(=O)[C@@H]1CSSC[C@H](NC(=O)[C@H](Cc2ccccc2)NC(=O)CN2CCN(CC(=O)O)CCN(CC(=O)O)CCN(CC(=O)O)CC2)C(=O)N[C@@H](Cc2ccc(O)cc2)C(=O)N[C@@H](Cc2ccccc2)C(=O)N[C@@H](CCC(N)=O)C(=O)N[C@@H](CC(N)=O)C(=O)N1 [gallium-68 labelled]  tissue uptake (Wistar rat, healthy, Pituitary gland; intravenous, 8 MBq, 30 min, mean): 0.51 %ID/g
CCc1ccc(CC/C=C/c2ccc3c(c2)C(=O)CC3)cc1  total bilirubin (Sprague-Dawley rat, male, serum; oral, 450 mg/kg/day, 14 days): 1.03 µM
C#CC[C@@H](N)C(=O)N[C@H](CO)C(=O)N[C@@H](C(=O)N[C@H](CO)C(=O)N[C@H](CCC(=O)O)C(=O)N[C@@H](C(=O)N[C@H](CCC(N)=O)C(=O)N[C@H](CC(C)C)C(=O)N[C@H](CCSC)C(=O)N[C@H](Cc1c[nH]cn1)C(=O)N[C@H](CC(N)=O)C(=O)N[C@H](CC(C)C)C(=O)NCC(=O)N[C@H](CCCCN)C(=O)N[C@H](Cc1c[nH]cn1)C(=O)N[C@H](CC(C)C)C(=O)N[C@H](CC(N)=O)C(=O)N[C@H](CO)C(=O)N[C@H](CCSC)C(=O)N[C@H](CCC(=O)O)C(=O)N[C@H](CCCNC(=N)N)C(=O)N[C@@H](C(=O)N[C@H](CCC(=O)O)C(=O)N[C@H](Cc1c[nH]c2ccccc12)C(=O)N[C@H](CC(C)C)C(=O)N[C@H](CCCNC(=N)N)C(=O)N[C@H](CCCCN)C(=O)N[C@H](CCCCN)C(=O)N[C@H](CC(C)C)C(=O)N[C@H](CCC(N)=O)C(=O)N[C@H](CC(=O)O)C(=O)N[C@@H](C(N)=O)C(C)C)C(C)C)[C@H](C)CC)C(C)C  Ki (hemagglutinin influenza A/California/07/2009 H1N1): > 58 µM
O=C(O)c1nccnc1NC(=O)c1cccc2ccccc12  Kd (Aspartate 1-decarboxylase (panD, Mycobacterium tuberculosis, UniProt P9WIL3); binding): 20 ± 0.5 µM
COc1ccc(N2C(=O)N(c3c(C)cccc3Cl)Cc3cnc(Nc4ccc(C5CCN(C)CC5)cc4OC)nc32)nc1  inhibition (PHKG2 (Homo sapiens, UniProt P15735); kinase activity, inhibitor; 0.5 µM, kinase PHK-GAMMA2): 7.38%
O=C(Cc1ccc(Br)cc1)N[C@H]1CCOC1=O  IC50 (expR (Pectobacterium carotovorum, UniProt Q4KS34)): 3.5 µM
[H]/N=C(/N)N[C@H]1[C@H](O)[C@@H](O)[C@H](O[C@@H]2O[C@@H](C)[C@](O)(C=O)[C@H]2O[C@@H]2O[C@@H](CO)[C@H](O)[C@@H](O)[C@@H]2NC)[C@@H](N/C(N)=N\[H])[C@@H]1O  Kd (Multidrug resistance protein MdtM (mdtM, Salmonella typhi, UniProt Q8XFG0)): 0.02 ± 0.004 µM
CC[C@H](C)[C@H](NC(=O)[C@H](Cc1ccccc1)NC(=O)[C@H](CCC(=O)O)NC(=O)[C@H](CCCNC(=N)N)NC(=O)[C@H](C)NC(=O)[C@H](C)NC(=O)[C@H](CCC(N)=O)NC(=O)[C@H](CCC(=O)O)NC(=O)[C@H](CCC(=O)O)NC(=O)[C@H](CC(C)C)NC(=O)[C@H](Cc1ccc(O)cc1)NC(=O)[C@H](CO)NC(=O)[C@H](CO)NC(=O)[C@@H](NC(=O)[C@H](CC(=O)O)NC(=O)[C@H](CO)NC(=O)[C@@H](NC(=O)[C@H](Cc1ccccc1)NC(=O)[C@@H](NC(=O)CNC(=O)[C@H](CCC(=O)O)NC(=O)[C@H](C)NC(=O)CCc1c[nH]cn1)[C@@H](C)O)[C@@H](C)O)C(C)C)C(=O)N[C@@H](C)C(=O)N[C@@H](Cc1c[nH]c2ccccc12)C(=O)N[C@@H](CC(C)C)C(=O)N[C@H](C(=O)N[C@@H](CCCNC(=N)N)C(=O)NCC(=O)N[C@@H](CCCNC(=N)N)C(=O)N[C@@H](CCCCNC(=O)COCCOCCNC(=O)COCCOCCNC(=O)CC[C@H](NC(=O)CCCCCCCCCCCCCCCCC(=O)O)C(=O)O)C(=O)NCC(=O)NCC(=O)N[C@@H](CO)C(=O)N[C@@H](CCCCNc1c(NCCCCCN(O)C(=O)CCC(=O)NCCCCCN(O)C(=O)CCC(=O)NCCCCCN(O)C(C)=O)c(=O)c1=O)C(=O)O)C(C)C [zirconium-89 labelled]  tissue uptake (rat, femur; intravenous, 3 nmol/kg, 24 h): 0.15 %ID/g
Brc1ccc2c(c1)C(c1ccccn1)=NCc1c(-c3cnco3)ncn1-2  IC50 (GABRG2/GABRA2, with β3 subunit (Homo sapiens, UniProt P18507+P47869)): 0.32 µM
C[C@@H](Cc1ccccc1)N(C)Cc1ccccc1  IC50 (ADRA2B (Homo sapiens, UniProt P18089); inhibitor): 2.81 µM
O=c1[nH]c2ccccc2n1C1CCN(CCCC(c2ccc(F)cc2)c2ccc(F)cc2)CC1  Ki (Signal transducer and activator of transcription 5B, SH2 domain (STAT5B, Homo sapiens, UniProt P51692); phosphopeptide binding, inhibitor, fluorescence polarization; added: FAM-GpYLVLDKW peptide): 29.6 µM
C[C@]1(CO)Cc2ncn(-c3ccc(C#N)c(Cl)c3)c2C(=O)O1  half-life (healthy Japanese adults, plasma; 3 mg single dose): 4.9 h
CCCC(NC)C(=O)c1ccc2c(c1)OCO2 (racemic)  IC50 (Slc6a3; dopamine uptake, inhibitor; rat brain synaptosomes; added: [3H]dopamine): ~0.12 µM
CC[C@@H](NC(=O)CNC(=O)[C@@H](Cc1ccccc1)NC(=O)CNC(=O)[C@H](N)CCC(N)=O)C(=O)N[C@H](CC(=O)O)C(=O)N[C@H](CCC(=O)O)C(=O)N[C@H](CCSC)C(=O)N[C@H](CC(C)C)C(=O)N[C@H](CCC(N)=O)C(=O)NCC(=O)N[C@H](Cc1ccccc1)C(=O)N[C@H](C)C(=O)N[C@@H](C(=O)N[C@H](C)C(=O)N[C@@H](C(=O)N[C@H](CCCCN)C(=O)N[C@H](CCSC)C(=O)NCC(=O)N[C@H](C)C(=O)N[C@H](Cc1ccc(O)cc1)C(=O)N[C@H](CCCCN)C(=O)N[C@H](C)C(=O)N[C@H](Cc1c[nH]c2ccccc12)C(=O)O)C(C)C)C(C)C  Ki (hemagglutinin influenza A/California/07/2009 H1N1): 8 µM
CC[C@H](C)[C@@H]1NC(=O)[C@@H]2CCCN2C(=O)[C@H](CC(C)C)NC(=O)[C@H](CC(C)C)NC(=O)CNC(=O)[C@@H](NC(=O)[C@@H](NC(=O)[C@H](CC(=O)O)NC(=O)CNC(=O)[C@@H](NC(=O)[C@H](C)NC(=O)CNC(=O)[C@H](CCCCN)NC(=O)[C@H](CC(C)C)NC(=O)[C@H](CC(C)C)NC(=O)[C@H](CCCCN)NC(=O)CNC(=O)[C@@H](NC(=O)[C@@H](N)CC(C)C)C(C)C)C(C)C)C(C)C)CSSC[C@@H](C(=O)O)NC1=O  log2 fold change (RNA-seq, measured: Gch1; mouse, traumatic brain injury model, frontal cortex and hippocampus; dose not given; baseline: TBI alone): -1.53
C#CC[C@@H](N)C(=O)N[C@H](CO)C(=O)N[C@@H](C(=O)N[C@H](CO)C(=O)N[C@H](CCC(=O)O)C(=O)N[C@@H](C(=O)N[C@H](CCC(N)=O)C(=O)N[C@H](CC(C)C)C(=O)N[C@H](CCSC)C(=O)N[C@H](Cc1c[nH]cn1)C(=O)N[C@H](CC(N)=O)C(=O)N[C@H](CC(C)C)C(=O)NCC(=O)N[C@H](CCCCN)C(=O)N[C@H](Cc1c[nH]cn1)C(=O)N[C@H](CC(C)C)C(=O)N[C@H](CC(N)=O)C(=O)N[C@H](CO)C(=O)N[C@H](CCSC)C(=O)N[C@H](CCC(=O)O)C(=O)N[C@H](CCCNC(=N)N)C(=O)N[C@@H](C(=O)N[C@H](Cc1ccc(O)cc1)C(=O)N[C@H](Cc1c[nH]c2ccccc12)C(=O)N[C@H](CC(C)C)C(=O)N[C@H](CCCNC(=N)N)C(=O)N[C@H](Cc1ccccc1)C(=O)N[C@H](CCCCN)C(=O)N[C@H](CC(C)C)C(=O)N[C@H](CCC(N)=O)C(=O)N[C@H](C)C(=O)N[C@@H](C(N)=O)C(C)C)C(C)C)[C@H](C)CC)C(C)C  Ki (hemagglutinin influenza A/California/07/2009 H1N1): 8 µM
Oc1cccc([C@]23CCC[C@H]([C@H]2O)N(CC=Cc2ccccc2)CC3)c1  EC50 (Oprd1 (Rattus norvegicus, UniProt P33533); agonist; C6 cells expressing δ-opioid receptor, cell membranes): 0.253 µM
C[C@H]1CN(c2n[nH]c3nc(N[C@H]4CC[C@H](NS(=O)(=O)CCC(F)(F)F)CC4)ncc23)CCO1  remaining binding (TNF receptor-associated factor 2 (Homo sapiens, UniProt Q12933); Kinobeads competition, measured: TRAF2; 0.032 µM, unit not given; baseline: vehicle): 1.02
C#CC[C@@H](N)C(=O)N[C@H](CO)C(=O)N[C@@H](C(=O)N[C@H](CO)C(=O)N[C@H](CCC(=O)O)C(=O)N[C@@H](C(=O)N[C@H](CCC(N)=O)C(=O)N[C@H](CC(C)C)C(=O)N[C@H](CCSC)C(=O)N[C@H](Cc1c[nH]cn1)C(=O)N[C@H](CC(N)=O)C(=O)N[C@H](CC(C)C)C(=O)NCC(=O)N[C@H](CCCCN)C(=O)N[C@H](Cc1c[nH]cn1)C(=O)N[C@H](CC(C)C)C(=O)NCC(=O)N[C@H](CO)C(=O)N[C@H](CCSC)C(=O)N[C@H](CCC(=O)O)C(=O)N[C@H](CCCNC(=N)N)C(=O)N[C@@H](C(=O)N[C@H](Cc1ccc(O)cc1)C(=O)N[C@H](Cc1ccccc1)C(=O)N[C@H](CC(C)C)C(=O)N[C@H](CCCNC(=N)N)C(=O)N[C@H](Cc1ccccc1)C(=O)N[C@H](CCCCN)C(=O)N[C@H](CC(C)C)C(=O)N[C@H](CCC(N)=O)C(=O)N[C@H](CC(C)C)C(=O)N[C@@H](C(N)=O)[C@H](C)CC)C(C)C)[C@H](C)CC)C(C)C  Ki (hemagglutinin influenza A/California/07/2009 H1N1): 28 µM
Nc1ncnc2c1ncn2[C@@H]1O[C@H](COP(=O)(O)OP(=O)(O)OP(=O)(O)O)[C@@H](O)[C@H]1O  Kd (MET (Homo sapiens, UniProt P08581, C1091S/C1146S/F1200I/K1232C); binding): 74 ± 6 µM
OC1(c2ccc(Cl)cc2)c2ccccc2C2=NCCN21 (stereo not shown)  Kd (snf (Aquifex aeolicus, UniProt O67854, G24D/I359G/N21Y/S256G/T254S/Y265F); saturation binding): 0.318 ± 0.01 µM
COc1cc(Nc2ncc(F)c(Nc3ccc4c(n3)NC(=O)C(C)(C)O4)n2)cc(OC)c1OC  IC50 (MMP12 (Homo sapiens, UniProt P39900); metalloproteinase-12): > 10 µM
COC(=O)CCOC(=O)c1cncn1[C@H](C)c1ccccc1  EC50 (GABA-A receptor alpha-1/beta-3, with gamma-2 subunit (GABRA1/GABRB3, Homo sapiens, UniProt P14867+P28472, L291T); direct receptor activation, agonist, two-electrode voltage clamp; Xenopus oocytes; baseline: 100 µM GABA current): 20 µM
COc1ccc(CCN)cc1OC  IC50 (Gag polyprotein, nucleocapsid protein p7 (gag, Human immunodeficiency virus type 1 group M subtype B, UniProt P04591); NCp7-RNA binding, AlphaScreen; HIV-1; added: 25 nM NCp7, 12.5 nM RNA): 15.7 µM
COC(=O)Cc1ccccc1  IC50 (uncharacterized protein (Bradysia odoriphaga, UniProt A0A2S0X9G4); binding, competitive fluorescence displacement; pH 7.4): > 50 µM
Cc1cccc(C(C)c2cnc[nH]2)c1C (stereo not shown)  Kd (Nuclear receptor subfamily 2 group C member 2, ligand-binding domain (Homo sapiens, UniProt P49116); binding): 0.000821 µM
CC[C@@H](NC(=O)CNC(=O)[C@@H](CC(C)C)NC(=O)CNC(=O)[C@H](N)CCC(N)=O)C(=O)N[C@H](CC(=O)O)C(=O)N[C@H](CCC(=O)O)C(=O)N[C@H](CC(N)=O)C(=O)N[C@H](CC(C)C)C(=O)N[C@H](CCC(N)=O)C(=O)NCC(=O)N[C@H](Cc1ccccc1)C(=O)N[C@H](C)C(=O)N[C@@H](C(=O)N[C@H](C)C(=O)N[C@@H](C(=O)N[C@H](CCCCN)C(=O)N[C@H](CCSC)C(=O)NCC(=O)N[C@H](C)C(=O)N[C@H](Cc1ccc(O)cc1)C(=O)N[C@H](CCCCN)C(=O)N[C@H](C)C(=O)N[C@H](Cc1c[nH]c2ccccc12)C(=O)O)C(C)C)C(C)C  Ki (hemagglutinin influenza A/California/07/2009 H1N1): 10 µM
CO[C@H]1C[C@@H]2CC[C@@H](C)[C@@](O)(O2)C(=O)C(=O)N2CCCC[C@H]2C(=O)O[C@H]([C@H](C)C[C@@H]2CC[C@@H](OC(=O)NCCOCCOCCOCCOCCOCCOCCOCCOCCC(=O)N3CCc4cc(Cn5nc(-c6ccc7oc(N)nc7c6)c6c(N)ncnc65)ccc4C3)[C@H](OC)C2)C[C@@H](O)[C@H](C)/C=C(\C)[C@@H](O)[C@@H](OC)C(=O)[C@H](C)C[C@H](C)/C=C/C=C/C=C/1C  diarrhoea incidence (patients with advanced solid tumours; intravenous, 6 mg weekly, grade 3 or higher): 0%
CCCc1cc(O)c2c(c1)OC(C)(C)[C@@H]1CCC(C)=C[C@@H]21  EC50 (TRPV3 (Homo sapiens, UniProt Q8NET8, S444A); calcium uptake, agonist; HEK293S; mutant S444A, site 2): 2.43 ± 0.14 µM
CNC(C)C(=O)c1ccc2c(c1)OCO2 (stereo not shown)  IC50 (Slc6a3; rat): 1.08 ± 0.06 µM
COc1cc2c(Oc3ccc4[nH]c(C)cc4c3F)ccnc2cc1OCC1(N)CC1  grade 1 or 2 sinus tachycardia (paediatric recurrent refractory sarcoma; concentration not given, whole group): 11.8%

Some of these lines once more:
CNC(C)C(=O)c1ccc2c(c1)OCO2 (stereo not shown)  IC50 (Slc6a3; rat): 1.08 ± 0.06 µM
COc1cc2c(Oc3ccc4[nH]c(C)cc4c3F)ccnc2cc1OCC1(N)CC1  grade 1 or 2 sinus tachycardia (paediatric recurrent refractory sarcoma; concentration not given, whole group): 11.8%
